Results from different studies.
± gives the spread as reported.

N#Cc1ccc2c(c1)[C@H]1CCCN(C(=O)c3ccc4[nH]cnc4c3)[C@H]1C2  cortisol level change (human; 160 mg, day 15; baseline: baseline): -145 nmol/L
CCCCC1=NC2(CCCC2)C(=O)N1Cc1ccc(-c2ccccc2S(=O)(=O)Nc2noc(C)c2C)c(COCC)c1  AUC(0-inf) (healthy adult volunteers, plasma; oral, 100 mg, 14 days repeated dosing, fasted, crushed tablet): 26.6 µg·h/mL
Cc1cn(C(=O)c2c(-c3c(Cl)cc(Cl)cc3Cl)noc2C(C)(C)F)c2cccc(/C=C/C(=O)O)c12  AUC(0-8h) (human patients; 1400 mg bid, cycle 1 day 1): 175 µg·h/mL
CN1C(=O)[C@@H](NC(=O)c2nnc(Cc3ccccc3)[nH]2)COc2cccnc21  TEAE leading to permanent discontinuation (phase I single ascending dose; human, male and female; oral, 200 mg, fasted): 0%
COc1ncc(-c2nc3c(n2C(C)C)[C@H](c2ccc(Cl)cc2)N(c2cc(Cl)cn(C)c2=O)C3=O)c(OC)n1  AUC(0-t) geometric mean (human patients, plasma; oral, 200 mg, high-dose arm, cycle 1 day 1): 26.3 µg·h/mL
Cc1ccc(CCC(=O)Nc2nnc(S(N)(=O)=O)s2)cc1  unbound plasma concentration (BALB/c mouse, male, plasma; oral, 20 mg/kg, 1 h): 0.882 ng/mL
NC(=O)N1c2ccccc2CC(O)c2ccccc21 (centres unmarked)  volume of distribution (population PK modelling; human patients, plasma; dose not given, weight-scaled, shared estimated exponent): 39.8 L
N#CCC(=O)Nc1ccc([C@H]2[C@@H](F)[C@@H](F)C[C@@H](F)[C@H]2F)cc1  hepatic clearance (liver microsome stability; dog liver microsomes; 1 µM): 0.84 L/h/kg
Cc1nc2ccc(F)cc2n1-c1nc(N)c(F)c(Nc2ccc(C(F)(F)F)cc2)n1  dose-normalized Cmax (human patients, plasma; oral, 400 mg twice weekly, cycles 1 and 2 pooled): 5.51 ng/mL/mg
Cc1cc(C)c(CNC(=O)c2cc(Cl)c3c(c2C)O[C@@](C)([C@H]2CC[C@H](N(C)C)CC2)O3)c(=O)[nH]1  fu (ultracentrifugation; glycoprotein, alpha-1-acid, 0.1%; 10000 ng/mL, 160 min): 0.44
O=C(O)CCCOc1ccc([18F])cc1-c1cc(-c2ccccc2C(F)(F)F)n(-c2ccccc2)n1  blood radioactivity (18F biodistribution; male ddY mouse, whole blood; intravenous, 2.1 MBq, 30 min): 0.2 ± 0.17 SUV
C=CC(=O)Nc1cc(Nc2nccc(-c3cn(C)c4ccccc34)n2)c(OC)cc1N(C)CCN(C)C  recovery (storage stability; human dried blood spots; 72 h, -80 °C, LLOQ level): 91.9%
CN(Cc1cccnc1)C(=O)c1ccc([C@H]2[C@@H](F)[C@@H](F)C[C@@H](F)[C@H]2F)cc1  hepatic clearance (liver microsome stability; mouse liver microsomes; 1 µM): 4.5 L/h/kg
C[C@]12CC[C@@H]3c4ccc(O)cc4CC[C@H]3[C@@H]1CCC2=O  dose fraction in milk fat (whole cow milk; 200 nM nominal): 72.9%
CC(=O)N1CC(C(=O)Nc2ccc(C3CCCCC3)cc2)C1  hepatic clearance (liver microsome stability; mouse liver microsomes; 1 µM): 2.76 L/h/kg
COc1cc2nccc(Oc3ccc(NC(=O)c4cc5c(n(-c6ccccc6)c4=O)CCCC5=O)nc3)c2cc1OC  AUC(0-10 h) (human patients; oral, dose not given, day 29, with venetoclax 6 mg once daily): 4.26 µg·h/mL
CC(C)(C)NC(=O)C1CCN(Cc2cccc(/N=N/c3ccccc3F)c2)CC1  absorption maximum, trans isomer (DMSO; 25 µM, 25 °C): 333 nm
Cc1ccc([C@@H]2O[C@H](CO)[C@@H](O)[C@H](O)[C@H]2O)cc1Cc1ccc(-c2ccc(F)cc2)s1  urinary sodium excretion change (Japanese type 2 diabetes patients; 200 mg, day 18, 24 h urine collection; baseline: baseline): -17.3 mEq
C[C@@H](Nc1cc(F)cc(F)c1)c1cc(C(=O)N(C)C)cc2c(=O)cc(N3CCOCC3)oc12  dose interruption due to AE (advanced solid tumour patients; oral, 60 mg twice daily, continuous monotherapy): 33.3%
Cn1cc(Nc2nccc(-c3ccc4c(c3)CN(C3COC3)CC[C@H]4NC(=O)c3cn(C(C)(C)C)nn3)n2)cn1  percent change from baseline (measured: Lymphocytes count; human, clinical trial, whole blood; 150 mg twice daily, follow-up): 3.21%
CNCc1ccc(-c2[nH]c3cc(F)cc4c3c2CCNC4=O)cc1  patients with adverse event (measured: headache; human patients; oral, 600 mg twice daily, grade 2): 0%
O=C(Nc1cnccc1Cl)N1CCN(Cc2ccc3c(c2)OC(F)(F)O3)CC1  adverse event incidence (measured: Somnolence; human healthy young men; 75 mg, multiple dose): 33.3%
Cl.[2H]C([2H])([2H])CC(=O)c1cnc(NC(=O)C2CC2)cc1Nc1cccc(-c2ncn(C([2H])([2H])[2H])n2)c1OC  Tmax (median; human; oral, 5 mg single dose, fasted, liquid): 0.75 h
CCCOc1ccc(NC(=O)CN2CCN(C)CC2)cc1-c1nc(CC)c(CC)c(=O)[nH]1  maximal decrease in diastolic BP (healthy Chinese men; 10 mg, supine or semi-supine, added: alcohol 0.5 g/kg; baseline: baseline): -12.6 ± 5.45 mmHg
COc1cc(C(=O)N2CCC3(CC2)CC(=O)c2c(cnn2C(C)C)C3)cc(-c2ccc(C(=O)O)cc2)n1  placebo-adjusted change from baseline (measured: HDL cholesterol; human, fasting serum; 100 mg every 12 h, day 13, adjusted geometric mean; baseline: baseline and placebo): -19.6%
O=C(Nc1nc2cccc(-c3ccc(CN4CCS(=O)(=O)CC4)cc3)n2n1)C1CC1  patients with erythema (rheumatoid arthritis patients; oral, 200 mg once daily, 4 weeks, regardless of relatedness): 8.3%
Cc1ccc(Sc2ccccc2N2CCNCC2)c(C)c1  participants with TEAE (measured: any TEAE; healthy adult women; oral, 5 mg daily, 12 days): 50%
CNC(=O)c1ccc(-c2cnc3ncc(Cc4ccc5ncccc5c4)n3n2)cc1F  patients with adverse event (measured: Ascites, all grades; gastric cancer patients; oral, 600 mg twice daily, expansion cohort, any causality): 11%
CCOc1c([C@H](C)n2nc(C)c3c(N)ncnc32)cc(Cl)c(F)c1[C@@H]1CNC(=O)C1  ECG observations (measured: QTcF ≤450 ms; previously treated B-cell malignancy; oral, 20 mg once daily, baseline QTcF ≤450 ms): 95.8%
CC(C)(C(=O)N1CCOc2c(C#N)cncc2C1)C(F)F  subjects with TEAE (measured: general and administration site conditions; healthy humans, both sexes; oral, 20 mg single dose): 0%
Cn1cncc1-c1c(F)cncc1NC(=O)c1c(N)nn2cc(F)cnc12  Vp/F (population PK model; patients with solid tumours, plasma; oral): 136 L
c1ccc(-c2nc(N3CCC(c4ccccn4)C3)c3ccccc3n2)nc1 (centres unmarked)  MRT(0-last) (female Balb/c mice, plasma; intravenous, 2 mg/kg, mean, added: ABT 2 h prior): 2.7 h
O=C(O)CCC(=O)O.[2H]C([2H])([2H])Oc1cc(C)c2[nH]ccc2c1CN1CC[C@@H](C2CC2)C[C@H]1c1ccc(C(=O)O)cc1  subjects with any TEAE (healthy Chinese subjects; 200 mg, single ascending dose): 58.3%
CC(C)C(=O)O[C@H]1[C@H](C)OC(=O)[C@@H]1Cc1ccccc1  KFoc (soil adsorption; tested soils; geometric mean): 118 mL/g
CCN1/C(=C/C(C)=O)Sc2ccc(F)cc21  heart rate (cynomolgus monkey; oral, 10 mg/kg, 4 h post-dose): 97 ± 22 beats/min
O=C(N[C@H](Cc1c[nH]c2ccccc12)C(=O)Nc1ccncc1)c1ccc(N2CCN(c3ccc(F)c(F)c3)CC2)cc1F  concentration (Swiss Webster mouse, female, muscle; oral, 50 mg/kg, 2 h, 20% HPβCD vehicle): 0.06 µM
CCc1cc2ncc(CN3CCN(c4ccc(C(=O)NC)nc4)CC3)cc2[nH]c1=O  Lymphocytes count ratio (male rat, blood; oral, 25 mg/kg/day, 4 weeks; baseline: vehicle control): 0.64
CCc1cc(C(=O)NC)c2nccc(N3CCc4c(cc(Cn5ccnc5)cc4-c4cn(C)nc4C(F)(F)F)C3=O)c2c1  body weight change (Sprague Dawley rats; oral, 100 mg/kg twice daily, day 5; baseline: day 1): 6.7%
OC[C@H]1O[C@@H](c2ccc(Cl)c(Cc3ccc(O[C@H]4CCOC4)cc3)c2)[C@H](O)[C@@H](O)[C@@H]1O  change in LDL/HDL ratio (Japanese type 1 diabetes patients, blood; 10 mg, day 28; baseline: baseline): -0.08
C[C@@H](N)C1CCN(S(=O)(=O)c2cccc3cnccc23)CC1  participants with hypotension (healthy volunteers; 150 mg, fasted): 0%
O=C(Cn1ccnc1)Nc1ccc([C@H]2[C@@H](F)[C@@H](F)C[C@@H](F)[C@H]2F)cc1  hepatic clearance (rat liver microsomes; 1 µM): 0.552 L/h/kg
Cn1cc(-c2cn3nccc3c(-c3cnn([C@]4(CC#N)C[C@@H](C#N)C4)c3)n2)cn1  Vz/F (healthy human, plasma; 400 mg once daily, day 10, multiple dose, fed, geometric mean): 759 L
NC1(C(=O)N[C@@H](CCO)c2ccc(Cl)cc2)CCN(c2nc[nH]c3nccc2-3)CC1  incidence of maculopapular rash (metastatic CRPC patients; 320 mg b.i.d., any grade, treatment-related, added: enzalutamide 160 mg daily): 0%
CN(CCC#N)C(=O)c1ccc(C2CCCCC2)cc1  hepatic clearance (liver microsome stability; mouse liver microsomes; 1 µM): 5.22 L/h/kg
CSCC[C@H](NC(=O)[C@H](CCCCN)NC(=O)[C@H](CCCNC(=N)N)NC(=O)[C@H](CO)NC(=O)[C@H](Cc1c[nH]c2ccccc12)NC(=O)[C@H](CCCNC(=N)N)NC(=O)[C@H](CC(C)C)NC(=O)[C@@H](N)CCSC)C(=O)N1CCC[C@H]1C(=O)N[C@@H](CS)C(=O)N[C@H](C(=O)N[C@@H](CO)C(N)=O)C(C)C  remaining activity (12G5 competition, SUP-T1 cells; human plasma; 20 µM, 8 h, 37 °C): 1 ± 0.3%
O=C(NCc1cc[nH]n1)c1ccc([C@H]2[C@@H](F)[C@@H](F)C[C@@H](F)[C@H]2F)cc1  hepatic clearance (hepatocyte stability; cryopreserved rat hepatocytes; 1 µM): 2.28 L/h/kg
CC(C(=O)NCC(=O)NCC(CNC(=O)CNC(=O)C(C)N1CCN(CC(=O)[O-])CCN(CC(=O)[O-])CCN(CC(=O)[O-])CC1)(CNC(=O)CNC(=O)C(C)N1CCN(CC(=O)[O-])CCN(CC(=O)[O-])CCN(CC(=O)[O-])CC1)CNC(=O)CNC(=O)C(C)N1CCN(CC(=O)[O-])CCN(CC(=O)[O-])CCN(CC(=O)[O-])CC1)N1CCN(CC(=O)[O-])CCN(CC(=O)[O-])CCN(CC(=O)[O-])CC1.[Gd+3].[Gd+3].[Gd+3].[Gd+3] (centres unmarked)  Gd concentration (ICP-MS; rat, femur diaphysis; intravenous, 0.6 mmol Gd/kg, 1 week): 0.5 nmol/g

Excerpt of the above:
CC(C)C(=O)O[C@H]1[C@H](C)OC(=O)[C@@H]1Cc1ccccc1  KFoc (soil adsorption; tested soils; geometric mean): 118 mL/g
CCN1/C(=C/C(C)=O)Sc2ccc(F)cc21  heart rate (cynomolgus monkey; oral, 10 mg/kg, 4 h post-dose): 97 ± 22 beats/min
O=C(N[C@H](Cc1c[nH]c2ccccc12)C(=O)Nc1ccncc1)c1ccc(N2CCN(c3ccc(F)c(F)c3)CC2)cc1F  concentration (Swiss Webster mouse, female, muscle; oral, 50 mg/kg, 2 h, 20% HPβCD vehicle): 0.06 µM
CCc1cc2ncc(CN3CCN(c4ccc(C(=O)NC)nc4)CC3)cc2[nH]c1=O  Lymphocytes count ratio (male rat, blood; oral, 25 mg/kg/day, 4 weeks; baseline: vehicle control): 0.64
CCc1cc(C(=O)NC)c2nccc(N3CCc4c(cc(Cn5ccnc5)cc4-c4cn(C)nc4C(F)(F)F)C3=O)c2c1  body weight change (Sprague Dawley rats; oral, 100 mg/kg twice daily, day 5; baseline: day 1): 6.7%
OC[C@H]1O[C@@H](c2ccc(Cl)c(Cc3ccc(O[C@H]4CCOC4)cc3)c2)[C@H](O)[C@@H](O)[C@@H]1O  change in LDL/HDL ratio (Japanese type 1 diabetes patients, blood; 10 mg, day 28; baseline: baseline): -0.08
C[C@@H](N)C1CCN(S(=O)(=O)c2cccc3cnccc23)CC1  participants with hypotension (healthy volunteers; 150 mg, fasted): 0%
O=C(Cn1ccnc1)Nc1ccc([C@H]2[C@@H](F)[C@@H](F)C[C@@H](F)[C@H]2F)cc1  hepatic clearance (rat liver microsomes; 1 µM): 0.552 L/h/kg
